Results collected from several papers.
Numbered parts are unrelated; each lists some results of a single study.

Study 1
Target: Interferon regulatory factor 5, full length, phosphomimetic (IRF5, Homo sapiens, UniProt Q13568-2, residues 1-514, K96S/S451D/S453D/S456D/S462D)
Technique: protein-binding microarray
Form: double-stranded DNA, one strand shown
Sample: in vitro
Tested at: 250 nM
Notes: 60-bp whole probe
With: salmon DNA 0.4 mg/ml
Relative to: random background probes
Direction: higher = stronger binding
Constant ends, left off below: GCCTAGCAC … GTCTTGATTCGCTTGACGCTGCTG
Strand | log fluorescence
GACGGACTGGAGTATCGGGACGTGCTA | 0.79 z-score
TTAGGTTTCGACTTTCGGGTAGTGCTA | 9.38 z-score
AGTGTTATAATATTATTGCAGTGCTAG | 0.599 z-score
GAGTCTTCCCTTTTAAGTTCGTGCTAG | 0.0312 z-score
TTAGTACTGGACACTGGGTTAGTGCTA | 0.0234 z-score
GACGGTTTCGCCTATCGGGACGTGCTA | 4.96 z-score
ATTTTTTAGCTTCTCAATTAGTGCTAG | 0.831 z-score
TTAGGTATCGGACTGTGTTAGTGCTAG | 1.43 z-score
TTAGGACTGCGACTGCTTTAGTGCTAG | -0.436 z-score
TAATATATATATTGTTAGTGTGTGCTA | 0.657 z-score
TACGGTTTCCTACTGCTGACGTGCTAG | 0.64 z-score
TTAGATTCCGGTTTCGATTAGTGCTAG | 8.8 z-score
TCATCTCTTATTCTAACACTGTGCTAG | 0.729 z-score
TTAGGTTTCGGTATCGCTTAGTGCTAG | 10.9 z-score
TTAGGTACCCTTATCCTTTAGTGCTAG | -0.343 z-score
TATATATCCATTATAGATGAGTGCTAG | 0.524 z-score
AGCTACTGAGTGGCAACACAGTGCTAG | -0.398 z-score
TCATATACACACTATAGTACTGTGCTA | 0.327 z-score
GACGGAATCGGGACTGGGGACGTGCTA | -0.155 z-score
GAAGGTTTCGACTTTCGGGACGTGCTA | 7.99 z-score
GCCTTGTTCGTCGCTCCGCTGTGCTAG | -0.312 z-score
TTAGTACTGGGGTTTCGATTAGTGCTA | 5.24 z-score
TTCGGACTGGGGTTTCGGTTAGTGCTA | 6.86 z-score

Study 2
Target: Sal-like protein 4, full length isoform A (SALL4, Homo sapiens, UniProt Q9UJQ4, residues 1-1053)
Sequence of UniProt Q9UJQ4 (whole entry, looked up): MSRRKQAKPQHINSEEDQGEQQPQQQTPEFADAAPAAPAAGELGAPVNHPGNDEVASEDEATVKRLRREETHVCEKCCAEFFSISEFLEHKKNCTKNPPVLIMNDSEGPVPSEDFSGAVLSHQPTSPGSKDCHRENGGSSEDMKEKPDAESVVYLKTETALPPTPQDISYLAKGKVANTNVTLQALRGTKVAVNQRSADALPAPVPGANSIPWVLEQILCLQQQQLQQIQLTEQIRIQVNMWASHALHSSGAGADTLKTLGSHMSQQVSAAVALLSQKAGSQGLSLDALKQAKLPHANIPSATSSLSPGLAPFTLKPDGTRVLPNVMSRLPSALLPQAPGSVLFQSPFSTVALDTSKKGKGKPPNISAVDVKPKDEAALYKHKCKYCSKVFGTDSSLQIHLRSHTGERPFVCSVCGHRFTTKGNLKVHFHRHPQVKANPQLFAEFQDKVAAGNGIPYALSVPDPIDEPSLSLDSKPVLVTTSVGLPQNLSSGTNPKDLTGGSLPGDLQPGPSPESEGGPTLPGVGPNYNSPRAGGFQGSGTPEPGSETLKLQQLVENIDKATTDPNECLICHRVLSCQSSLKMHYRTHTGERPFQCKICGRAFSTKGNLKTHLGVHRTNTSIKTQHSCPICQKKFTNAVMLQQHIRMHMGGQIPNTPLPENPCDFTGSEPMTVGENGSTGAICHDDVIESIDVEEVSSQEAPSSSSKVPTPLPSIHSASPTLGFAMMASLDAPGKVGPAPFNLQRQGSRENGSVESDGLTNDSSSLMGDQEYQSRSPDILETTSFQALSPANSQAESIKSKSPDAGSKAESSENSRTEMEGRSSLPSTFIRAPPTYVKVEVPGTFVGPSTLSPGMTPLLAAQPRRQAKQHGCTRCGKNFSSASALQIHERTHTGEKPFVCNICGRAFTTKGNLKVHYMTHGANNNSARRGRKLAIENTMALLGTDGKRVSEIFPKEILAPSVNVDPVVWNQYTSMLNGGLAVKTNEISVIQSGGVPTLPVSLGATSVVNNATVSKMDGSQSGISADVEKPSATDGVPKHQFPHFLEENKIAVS
Technique: universal PBM
Form: double-stranded DNA, one strand shown
Sample: in vitro
Tested at: 600 nM
Notes: 8-mer, flanks averaged, mean of replicates
Direction: higher = stronger binding
Strand | E-score
ATCTCACG | -0.0115
ACCACATC | -0.0694
GTAGTTAA | 0.14
CGGACTCC | -0.263
CGGTGTCC | -0.389
TCCAATAA | 0.275
GCTGTTAC | -0.047
ACGCTAGG | -0.147
TCCGGCAA | -0.119
ATTCTCGA | 0.0673
CGTGGCTA | -0.0785
AGATTCGA | -0.046
GAAGTGGC | -0.157
AGTAACTC | -0.103
AAGACCTG | -0.0882
CCTTCACC | -0.191
GCTCGTTA | -0.0547
ACTTTCCT | -0.027
CTTCTCTC | -0.00905
ACGTCTGA | 0.0344
ACACGCCA | -0.225

Study 3
Target: Histone acetyltransferase KAT6A, winged helix 1, GST fusion (KAT6A, Homo sapiens, UniProt Q92794, residues 1-85)
Technique: protein binding microarray
Form: double-stranded DNA, one strand shown
Sample: in vitro
Tested at: not given
Notes: 8-mer, flanks averaged, mean of 2 arrays, mostly near background
Relative to: not given
Direction: higher = stronger binding
Residues (chain): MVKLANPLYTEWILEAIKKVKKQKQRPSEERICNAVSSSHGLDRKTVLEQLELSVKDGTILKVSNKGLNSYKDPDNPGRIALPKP
Strand | E-score
CCCCTAGC | -0.221
CCGCCGCC | 0.461
CAGAGGCG | 0.0739
AGGGTCCG | 0.0407
CATGGCCA | -0.19
ACTACAAT | 0.071
CGAGAAAA | -0.134
AGCCCCGG | 0.219
AAGGGGTC | -0.134
GAGCTAGA | -0.039
GCGCTGCA | 0.297
CATCGGAC | 0.0727
AGATTGCC | -0.0782
GCGGTCGA | 0.177
AAATTACA | 0.0364
AGTCGTAT | -0.0471
TACCGGGA | 0.28
AGCCAATA | -0.0898
CGCTCGTC | 0.186
CCGTAATA | 0.283
AGAAGAGC | -0.017
GATCGGCA | 0.141
CTCTATCC | 0.0066
GTCGTATA | 0.0503
GAACCCTC | -0.0673

Study 4
Target: Centromere-binding protein 1, full length, N-terminal tag (CBF1, Saccharomyces cerevisiae, UniProt P17106, residues 1-351)
Sequence of UniProt P17106 (whole entry, looked up): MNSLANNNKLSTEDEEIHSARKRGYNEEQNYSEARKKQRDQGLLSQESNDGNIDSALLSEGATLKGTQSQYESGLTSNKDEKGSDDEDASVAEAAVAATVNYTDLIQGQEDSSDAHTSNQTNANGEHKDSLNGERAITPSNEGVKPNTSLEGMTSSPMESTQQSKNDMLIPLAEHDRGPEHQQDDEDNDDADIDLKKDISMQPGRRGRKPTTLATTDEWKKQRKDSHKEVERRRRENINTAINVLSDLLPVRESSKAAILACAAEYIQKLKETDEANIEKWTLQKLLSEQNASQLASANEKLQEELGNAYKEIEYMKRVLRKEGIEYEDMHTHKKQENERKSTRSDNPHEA
Technique: protein-binding microarray
Form: double-stranded DNA, one strand shown
Sample: in vitro
Tested at: 0.8 µM
Notes: whole 60-bp probe, no competitor
Direction: higher = stronger binding
Constant ends, left off below: … GTCTTGATTCGCTTGACGCTGCTG
Strand | fluorescence intensity [a.u.]
TGTACGAAGCTATACGTGATAATTATAGTAGTTAGG | 577
GAACGAGGTTTTAAAAACGTGTGATTAGCTTGATAG | 602
GAATGTTTCTCGCGCCATCAGTTTTAGTGGCCGTAG | 549
GAATTAATTTTGCATCGGGTGATAACAACACCGTAG | 568
CTAAAATTTTATGTTTGCGTGATTGTTGGTGATTTC | 567
CTATTAGGTGCCTGTCACGCAATCCGTCCGCTGTTC | 606
CTATATTAAATAACTCAGCTGAGATTTCTCATTTTC | 466
CTAAACATCGTTAAACACGCCATATCAGACTAATTC | 545
TGTACGAAGCTATGTCACGACCGTATAGTAGTTAGG | 608
CTAGTAGTAACTATCCTGATGTTGATCCTAGTTTTC | 489
CTATTTTGTTACTGTCATGTGAATAAAACTTATTTC | 1470
CTATTGCTTGAGCCACACGTGTATATAAAAATGTTC | 4360
GAATCCATTAATTGTCACCTTATGTTTTGTGTATAG | 572
CTATCATGTTGTTATCACCCCACGACGAAGATATTC | 555
CCTAACTACTATAACCACGAGACATAGCTTCGTACA | 738
TGTACGAAGCTATTATACGTGACTATAGTAGTTAGG | 673
CTAAAGGAAGTGATTGGTGTCACGATGATAAAATTC | 1030
GAATCTTAACGGCGCAGCATCACCGGGTGATGATAG | 522
CTAATGTAAGGATAGAACGTGAAGATCGAGAAATTC | 583
CTAATAAAGCATTGTGATGTTAAAGAATGACGATTC | 550
TGTACGAAGCTATGTAATGTCACTATAGTAGTTAGG | 547
CTATAGTTATACCCCCACGTTTGCTGGGTCTCATTC | 524
CTACAATATCCGGGTCACGTGAAAGTTAGATAATTC | 20200
CTATGGTAACAAAGTCACGGCTCCCGGATGTAGTTC | 657
GAACGTGCATGTATGTGCGTGCATGTATGTGTGTAG | 534

Study 5
Target: RNA binding protein fox-1 homolog 2, RRM domain, GST-SBP tag (RBFOX2, Homo sapiens, UniProt O43251-10, residues 100-194)
Technique: RNA Bind-n-Seq
Form: RNA
Sample: in vitro
Tested at: 365 nM
Notes: natural RNA segment, single round, ends assumed
Relative to: no-protein control
Direction: higher = stronger binding
Constant ends, left off below: GGGAGUUCUACAGUCCGACGAUC … UGGAAUUCUCGGGUGCCAA
Residues (chain): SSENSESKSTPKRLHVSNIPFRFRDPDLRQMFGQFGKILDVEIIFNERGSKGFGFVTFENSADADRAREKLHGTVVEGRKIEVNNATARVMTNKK
Strand | RBNS enrichment (R)
AUUCAGGCUGCUUGGGAUAAAGAUGCAAGGACCAGGACUCCCUCCUCACCUCUGGACUGGCUAGAGUCCUCACUCCCAGUCCAAAUGUCCUCCAGAAGCCUCUGGCUAGA | 0.642
UUUAGUUUCAUGCACAGUUGCAAUAUUUUCUUCAAAAAUAAAACUCUGUACAAACUUUGGGCCCGAUUCAUAAGAAAAAGAAGUUUGCUAUUAACACGGGAUUUUUUUAA | 0.508
CCAGUGAUGGAUAACAGCUCCUAUUCUCAGCUGACCUGACUGAGCCAACCCAUGAACUCUUCACUCCUUGGGGAAGCCACCUCCCAUCACACCCCUGAGCAGAGUUAGGG | 0.535
GGAAGGCUGUUAUACUCAGUGCCCGCCUUUGACCUAAAGCUGGCCAGCAUCCCUGGGGAAACCUGACUUGCAAUUUCUAGAGUUUAAGAUCUUCCCAUCGGCUGUGGCAA | 0.32
GGGAGGCUGUGGUCGCUGCCGGCCUAGGUGUCCCAGGUGCCCCGCCUUUCUCUGGGACACAGUUGGGGGCUGGCUUCUGAGGGAUUCCUUUCUCCCCUCUUUGUGUGGCC | 0.585
CUCCACAGAGACAGGAUGGUGGAGGGAGUUGUGUGCAGUUGAACUUGAUCCUGUAGUUGGUUUUGACCUGGUGUGGUCCCUCCAUGCUGUGGAAGUGAAAUGUGAGGGAA | 2.85
UCAAUUCCUUUAUUCAGGAAAGGAUACUUUAUUGCAUUAUUGUUGCAGAAGCAUAGAUUUAAUUGCAUCUUUAUUUUGAAAAACAAAUGAAAAUUGAUGGGGUUUAAAGC | 0.651
UUCUUGAAGAUAUGCUUGUUGCUUUACAACAUAUGUAAGCUAUUCUUUAGCAUAAAUGCAUUCAUUCUUUAAUAAAAAUAUGUUUGCAUUAAUAAAGCUGAGGAGUUUCA | 0.265
GAGAGUCCCAUGCCACCCGUCCCCUUGUGACCUCCCCCCUCUGACCUCCAGCUGACCAUGCAUGCCACGUGGCUGGCUGGGUCCUCUGCCCUCUCUGGAGUUUGCCUCCC | 5.9
GUUUGGCUAACCUUAUUUUGUGCUGUUAAUCUACCAAAGUGUUUUGUCUACCCCUUUAAUAAGUUGAGUUAAAAGUAAAAGGAACUUUAUAGUUAGUGCCACAAGAUAAA | 0.363
ACCAAAUUGGCUUUACCAUCUUGGCUUUAGUAGGUAUAGAAGACAAUGGAUUACCAUCUUUAUUGCUGUAAUGUGUUAAGCAUUAUAUGCUAGUAGAAUCUAGUUUAAUU | 0.309
UUUUUAGGGAAAUUUUUACAAAAAUAAUGGUCUGAUGUAAAUACCAUUUUAAAGUACAGUGCACAUAACUCCCUAGGCUGUUCCAACCUGACUAUUUGUAAAUGCUUUAG | 3.65

For quick reference, copied from above (study 5):
Strand | RBNS enrichment (R)
UUUAGUUUCAUGCACAGUUGCAAUAUUUUCUUCAAAAAUAAAACUCUGUACAAACUUUGGGCCCGAUUCAUAAGAAAAAGAAGUUUGCUAUUAACACGGGAUUUUUUUAA | 0.508
ACCAAAUUGGCUUUACCAUCUUGGCUUUAGUAGGUAUAGAAGACAAUGGAUUACCAUCUUUAUUGCUGUAAUGUGUUAAGCAUUAUAUGCUAGUAGAAUCUAGUUUAAUU | 0.309
GGGAGGCUGUGGUCGCUGCCGGCCUAGGUGUCCCAGGUGCCCCGCCUUUCUCUGGGACACAGUUGGGGGCUGGCUUCUGAGGGAUUCCUUUCUCCCCUCUUUGUGUGGCC | 0.585
GAGAGUCCCAUGCCACCCGUCCCCUUGUGACCUCCCCCCUCUGACCUCCAGCUGACCAUGCAUGCCACGUGGCUGGCUGGGUCCUCUGCCCUCUCUGGAGUUUGCCUCCC | 5.9
UCAAUUCCUUUAUUCAGGAAAGGAUACUUUAUUGCAUUAUUGUUGCAGAAGCAUAGAUUUAAUUGCAUCUUUAUUUUGAAAAACAAAUGAAAAUUGAUGGGGUUUAAAGC | 0.651
GUUUGGCUAACCUUAUUUUGUGCUGUUAAUCUACCAAAGUGUUUUGUCUACCCCUUUAAUAAGUUGAGUUAAAAGUAAAAGGAACUUUAUAGUUAGUGCCACAAGAUAAA | 0.363
GGAAGGCUGUUAUACUCAGUGCCCGCCUUUGACCUAAAGCUGGCCAGCAUCCCUGGGGAAACCUGACUUGCAAUUUCUAGAGUUUAAGAUCUUCCCAUCGGCUGUGGCAA | 0.32
UUUUUAGGGAAAUUUUUACAAAAAUAAUGGUCUGAUGUAAAUACCAUUUUAAAGUACAGUGCACAUAACUCCCUAGGCUGUUCCAACCUGACUAUUUGUAAAUGCUUUAG | 3.65
UUCUUGAAGAUAUGCUUGUUGCUUUACAACAUAUGUAAGCUAUUCUUUAGCAUAAAUGCAUUCAUUCUUUAAUAAAAAUAUGUUUGCAUUAAUAAAGCUGAGGAGUUUCA | 0.265
CCAGUGAUGGAUAACAGCUCCUAUUCUCAGCUGACCUGACUGAGCCAACCCAUGAACUCUUCACUCCUUGGGGAAGCCACCUCCCAUCACACCCCUGAGCAGAGUUAGGG | 0.535
CUCCACAGAGACAGGAUGGUGGAGGGAGUUGUGUGCAGUUGAACUUGAUCCUGUAGUUGGUUUUGACCUGGUGUGGUCCCUCCAUGCUGUGGAAGUGAAAUGUGAGGGAA | 2.85
AUUCAGGCUGCUUGGGAUAAAGAUGCAAGGACCAGGACUCCCUCCUCACCUCUGGACUGGCUAGAGUCCUCACUCCCAGUCCAAAUGUCCUCCAGAAGCCUCUGGCUAGA | 0.642
